Published values collected from several papers.
Lines come from different studies, so protocols differ. Values joined by “and” are separate records of one study, mostly repeats; a detail may differ. Numbers after ± are the reported error. In brackets after ≈: the same amount, converted by molar mass.

CC(C)(C(=O)N1CCOc2c(C#N)cncc2C1)C(F)F
subjects with TEAE (measured: vessel puncture site hypoaesthesia; healthy humans, both sexes; oral, 30 mg single dose): 0%

Cn1nc([N+](=O)[O-])nc1Oc1ccccc1C(=O)N1CCOCC1
logD (octanol/buffer; pH 7.4): 0.44

CCOC(=O)N1C[C@@H](c2ccc(Cl)cc2)N[C@@H](c2ccc(C(F)(F)F)cc2)C1
logD (shake-flask, 1-octanol/buffer; pH 7.4): > 4.7

Cn1cc([C@H]2C[C@H]3CSC(N)=N[C@@]3(c3ccc(F)cc3F)CO2)cn1
plasma concentration (male 129/SVE mouse, plasma; subcutaneous, 50 mg/kg, 6 h): 5.35 µM

C[C@H]1Oc2cc(cnc2N)-c2c(nn(C)c2C#N)CN(C)C(=O)c2ccc(F)cc21
CL (population PK; severe renal impairment patients, plasma; oral, 100 mg once daily, cycle 1 day 15, steady state): 128 mL/min

C=CC(=O)NC1CCN(c2ncc3ncnc(Nc4ccc(Oc5ccc6c(c5)ncn6C)c(C)c4)c3n2)CC1
AUC0-tz ratio (healthy male volunteers, plasma; oral solution, 60 mg; baseline: compound over total radioactivity): 0.595

Cc1cc(-c2nccc3c2ccn3CC(=O)Nc2ccc(-c3cnccn3)cn2)ccn1
musculoskeletal disorders (human; 15 mg once daily, multiple ascending dose): 11.1%

c1cc(-c2ccc3ncnc(NC4CCOCC4)c3c2)cc(N2CCOCC2)c1
CLint (human liver microsomes): 84 µL/min/mg

Cc1ccc(Sc2ccccc2N2CCNCC2)c(C)c1
participants with TEAE (measured: Thirst; healthy adult men; oral, 40 mg single dose, 10 day): 0%

CNC(=O)c1ccc(-c2cnc3ncc(Cc4ccc5ncccc5c4)n3n2)cc1F
Headache dose reduction/interruption (Japanese patients; oral, 400 mg, any grade): 1%

Cc1ccc([C@@H]2O[C@H](CO)[C@@H](O)[C@H](O)[C@H]2O)cc1Cc1ccc(-c2ccc(F)cc2)s1
urinary magnesium excretion change (Japanese type 2 diabetes patients; 100 mg, day 3, 24 h urine collection; baseline: baseline): -0.671 mg

C=CCOc1ccc([C@H]2CN(C(=O)OCC)C[C@@H](c3cc(O)c(O)c(Cl)c3)N2)cc1
logD (shake-flask, 1-octanol/buffer; pH 7.4): > 4.7

CC[C@H](C)[C@H](NC(=O)[C@H](Cc1ccccc1)NC(=O)[C@H](CCC(=O)O)NC(=O)[C@H](CCCCNC(=O)COCCOCCNC(=O)COCCOCCNC(=O)CC[C@H](NC(=O)CCCCCCCCCCCCCCCCC(=O)O)C(=O)O)NC(=O)[C@H](C)NC(=O)[C@H](C)NC(=O)[C@H](CCC(N)=O)NC(=O)CNC(=O)[C@H](CCC(=O)O)NC(=O)[C@H](CC(C)C)NC(=O)[C@H](Cc1ccc(O)cc1)NC(=O)[C@H](CO)NC(=O)[C@H](CO)NC(=O)[C@@H](NC(=O)[C@H](CC(=O)O)NC(=O)[C@H](CO)NC(=O)[C@@H](NC(=O)[C@H](Cc1ccccc1)NC(=O)[C@@H](NC(=O)CNC(=O)[C@H](CCC(=O)O)NC(=O)C(C)(C)NC(=O)[C@@H](N)Cc1cnc[nH]1)[C@@H](C)O)[C@@H](C)O)C(C)C)C(=O)N[C@@H](C)C(=O)N[C@@H](Cc1c[nH]c2ccccc12)C(=O)N[C@@H](CC(C)C)C(=O)N[C@H](C(=O)N[C@@H](CCCNC(=N)N)C(=O)NCC(=O)N[C@@H](CCCNC(=N)N)C(=O)NCC(=O)O)C(C)C
QTcF change from baseline (12-lead Holter ECG; healthy humans; subcutaneous, 1.5 mg once weekly, 30 h, steady state; baseline: placebo): -1.3 ms

COc1cc2c(cc1OC)CN(CCc1ccc(NC(=O)c3cccc4c(=O)c5cccc(OC)c5[nH]c34)cc1)CC2
total plasma concentration (Sprague Dawley rats, plasma; iv infusion, 0.89 mg/h/kg, 4 h): 353 ng/mL

NC[C@@]1(CC(=O)O)[C@@H]2CC[C@H]3C[C@@H]2[C@@H]1C3
unbound Cmax increase (human, mild renal impairment, plasma; dose not given; baseline: normal renal function): 4.4%

CCCOc1ccc(NC(=O)CN2CCN(C)CC2)cc1-c1nc(CC)c(CC)c(=O)[nH]1
headache incidence (healthy Chinese men; 10 mg, added: placebo alcohol): 20%

CCCCOC(=O)N1CCN(C(=O)[C@H](CP(=O)(O)O)NC(=O)c2cc(N3CC[C@H](OC)C3)nc(-c3ccccc3)n2)CC1
change in heart rate (human; subcutaneous, 16 mg, 24 h post-dose; baseline: baseline): 1.5 ± 5.6 beats/min

COc1ncc(-c2nc3c(n2C(C)C)[C@H](c2ccc(Cl)cc2)N(c2cc(Cl)cn(C)c2=O)C3=O)c(OC)n1
median half-life (human patients, plasma; oral, 25 mg, high-dose arm, cycle 2 day 1): 22.6 h

O=C(N[C@H](Cc1c[nH]c2ccccc12)C(=O)Nc1ccncc1)c1ccc(N2CCN(c3ccc(F)cc3F)CC2)cc1F
concentration (Swiss Webster mouse, female, lung; oral, 50 mg/kg, 8 h, 20% Kolliphor vehicle): 20.7 µM

C[C@@H]1CN(CC(=O)N2CC(C)(C)c3nc(CO)c(Cc4ccc(F)cc4)cc32)[C@@H](CN2CCOC[C@H]2C)CN1
renal clearance (Sprague Dawley rat, male, bile duct cannulated, urine; intravenous, 5 mg/kg): 13 mL/min/kg

CCN1/C(=C/C(C)=O)Sc2ccc(F)cc21
QT interval (cynomolgus monkey; oral, 100 mg/kg, 1 h post-dose): 233 ± 15 ms

CN(C)C/C=C/C(=O)Nc1cc2c(Nc3ccc(F)c(Cl)c3)ncnc2cc1O[C@H]1CCOC1
cysteine adduct formation (PBS; 100 µM, 23 h, pH 7.45, 37 °C, added: cysteine 10 mM): 98%

COc1nc(-c2cc(C)c(N[C@@H](C)c3c(F)cc(F)cc3F)nn2)ccc1-n1cnc(C)c1
brain concentration (C57BL/6J mice, male, brain; oral, 10 mg/kg daily for 9 days, 4 h after last dose): 1510 ng/g

CNC(=O)c1ccccc1Nc1cc(Nc2ccc(N3CCOCC3)cc2OC)ncc1C(F)(F)F
solubility (0.1% w/v Soluplus buffer; 4 h, pH 6.8, 37 °C): 1000 µg/mL (≈ 1990 µM)

CCOC(=O)N1C[C@@H](c2ccccc2O)N[C@@H](c2ccc(C(C)(C)C)cc2)C1
logD (shake-flask, 1-octanol/buffer; pH 7.4): > 4.7

C[C@@H](c1ncncc1F)[C@](O)(Cn1cncn1)c1ccc(F)cc1F
drug-related TEAE incidence (measured: Headache; human; oral, 400 mg): 0%

c1ccc2c(c1)ccc1ccccc12
log K(PDMS-water) (fresh water; 12 (unit not given), 20 °C, SSP sampler, 100 µm): 3.77 ± 0.02

N#Cc1ccc2c(c1)[C@H]1CCCN(C(=O)c3ccc4[nH]cnc4c3)[C@H]1C2
cortisol level change (human; 160 mg, end of trial; baseline: baseline): -218 nmol/L

O=C(COc1ccc(Cl)cc1)NC12CC(c3nnc([C@H]4C[C@@H](OC(F)(F)F)C4)o3)(C1)C2
procedural pain (humans; 200 mg once daily): 11.1%

Cc1nc2ccc(OCc3ccc(C(F)(F)F)cc3)cc2[nH]1
tissue concentration (Balb/c mouse, male, kidney; intravenous, 1 mg/kg, 3 h): 1050 ± 147 ng/g

C=CC(=O)NC1CCN(c2ncc3ncnc(Nc4ccc(Oc5ccc6c(c5)ncn6C)c(C)c4)c3n2)CC1
AUC0-tz reduction (human, male, plasma; oral, 30 mg, fed; baseline: fasted): 26%

O=C(Nc1nc2cccc(-c3ccc(CN4CCS(=O)(=O)CC4)cc3)n2n1)C1CC1
treatment-emergent adverse events (measured: arthralgia; human rheumatoid arthritis patients; oral, 200 mg once daily, 4 weeks, regardless of relatedness): 8.3%

CC(C)(C)CC(C)(C)c1ccc(O)c(-n2nc3ccccc3n2)c1
mass recovery (EpiSkin reconstructed epidermis; 36 h): 96.9%

C[C@@H](O)[C@H](NC(=O)c1ccc(C#Cc2ccccc2)cc1)C(=O)NCC1(C)NC(=O)NC1=O (some centres unmarked)
logD (octanol/buffer; pH 7.4): 2.72

CCOC(=O)N1C[C@@H](C2CCCCC2)N[C@@H](c2cccc(Br)c2)C1
logD (shake-flask, 1-octanol/buffer; pH 7.4): > 4.7

CCCn1cc(C)c2c(=O)[nH]c(-c3cc(S(=O)(=O)N4CCN(CC)CC4)ccc3OCC)nc21
flushing (human; treatment-emergent adverse event): 38.9%

C[C@@H]1COCCN1c1cc(C2([S@](C)(=N)=O)CC2)nc(-c2cc[nH]c3nccc2-3)n1
Nasopharyngitis incidence (Japanese advanced solid tumour patients; oral, 240 mg twice daily, CTCAE grade ≥3): 0%

C[C@H](N[C@@H](CCc1ccccc1)C(=O)O)C(=O)N1[C@H](C(=O)O)C[C@H]2CCCC[C@@H]21
freeze-thaw stability (human plasma; 1000 pg/mL, 3 cycles at -20 °C; baseline: nominal): 83 ± 14.2%

CC(=O)N(C)C1CCN(c2cc(F)cc(NC(=O)c3cc4c(F)ccc(C)c4[nH]3)c2)C1 (centres unmarked)
MRT(0-inf) (CD1 mouse; intravenous, 1 mg/kg): 0.7 h

COc1ccc2c3c([nH]c2c1)[C@H](CC(C)C)N1C(=O)[C@H](CC(=O)NC(C)C)NC(=O)[C@@H]1C3
kidney to body weight ratio (wild-type mouse; oral, 100 mg/kg daily, 23 days): 1.16% and 1.34%

O=C(O)CN1CCCN2CCN(CC(=O)O)CCCN(CC1)Cc1cccc(n1)C2
intact complex (64Cu complex; 2 h, pH 7.4, 37 °C, added: DOTA excess): 95%

CCn1c(=O)c(-c2cc(NC(=O)Nc3ccccc3)c(F)cc2Br)cc2cnc(NC)cc21
participants with grade ≥ 3 TEAE (measured: amylase increased; healthy human, matched to moderate hepatic impairment; oral, 50 mg single dose): 0%

CCc1cc(C(=O)NC)c2nccc(N3CCc4c(cc(Cn5ccnc5)cc4-c4cn(C)nc4C(F)(F)F)C3=O)c2c1
serum ALB change (Sprague Dawley rats; oral, 100 mg/kg twice daily, 7 days; baseline: vehicle): 1.1%

CCn1cc(C(=O)N2CCOCC2)c(=O)c2cc(NC3Cc4ccccc4C3)cnc21
half-life (human overall, fed, plasma; oral, 900 mg twice daily, day 1, tablet, arithmetic mean): 4.74 h

Nc1nc2c(nc([N+](=O)[O-])n2[C@@H]2O[C@H](CO)[C@@H](O)[C@H]2O)c(=O)[nH]1
nucleoside remaining fraction (depurination, RP-HPLC; citrate-phosphate buffer 0.5 mM; 45 min, pH 2, 37 °C): 0.927

Cn1cncc1-c1c(F)cncc1NC(=O)c1c(N)nn2cc(F)cnc12
distribution rate constant k12 (two-compartment PK model; xenograft-bearing mice, plasma): 0.11 h⁻¹

Oc1ccc(/C=C/c2cc(O)cc(O)c2)cc1
sodium (rat, azoxymethane-injected, blood at sacrifice; 10 mg/kg): 147 mEq/L and 149 mEq/L and 146 mEq/L

O=C(Nc1cccc2cccnc12)c1ccc(N2C(=O)[C@@H]3[C@H](C2=O)[C@@H]2C=C[C@H]3C2)cc1
membrane retention (PAMPA; 16 h): 68.5 ± 3.4%

[O]=[Co].[O]=[Co][O][Co]=[O]
cobalt concentration (rat, male, faeces, 24-h collection; oral gavage, single, 300 mg/kg (220 mg Co/kg), day 1, vehicle 0.5% HPMC; baseline: vehicle control subtracted): 5500 µg/g

CC(C)c1c(C(=O)Nc2ccccc2O)c(-c2ccccc2)c(-c2ccc(F)cc2)n1CCC(O)CC(O)CC(=O)O (centres unmarked)
chromatographic hydrophobicity index (reverse phase LC, C18; acetonitrile gradient, 0.1% formic acid; converted from retention time; baseline: Valko CHI standards): 94.9

CN1CCN(C(=O)c2ccccc2N(Cc2ccccc2)S(C)(=O)=O)CC1
logD (octanol/buffer; pH 7.4): 1.37

O=C(O)CCC(=O)O.[2H]C([2H])([2H])Oc1cc(C)c2[nH]ccc2c1CN1CC[C@@H](C2CC2)C[C@H]1c1ccc(C(=O)O)cc1
subjects with papular urticaria TEAE (multiple ascending dose; healthy Chinese subjects; 300 mg once daily): 0%

CN(CCC#N)C1CCN(C(=O)Cn2cc(NC(=O)c3cnn4cccnc34)c(-c3cc(Cl)ccc3OC(F)F)n2)CC1
LDL cholesterol change (human, single ascending dose; 15 mg, day 4; baseline: baseline): 0 mg/dL

CC(C)Nc1ccnc(Nc2cccc(-c3ccccn3)c2)n1
efflux ratio (MDCKII-WT cells; 10 µM, pH 7.4; baseline: Papp B-A over A-B): 2.99

O=C(Cn1nc(-c2cccc([N+](=O)[O-])c2)c2ccccc2c1=O)NCC1CCCO1 (centres unmarked)
logD (octanol/buffer; pH 7.4): 2.29

O=C(Nc1ccc(OC(F)(F)Cl)cc1)c1cnc(N2CC[C@@H](O)C2)c(-c2ccn[nH]2)c1
grade ≥2 event rate (per treatment cycle, measured: bilirubin increase; human patients; oral, dose not given, 28 day cycle): 0.3%

For quick reference, copied from above:
Cc1nc2ccc(OCc3ccc(C(F)(F)F)cc3)cc2[nH]1
tissue concentration (Balb/c mouse, male, kidney; intravenous, 1 mg/kg, 3 h): 1050 ± 147 ng/g

C=CC(=O)NC1CCN(c2ncc3ncnc(Nc4ccc(Oc5ccc6c(c5)ncn6C)c(C)c4)c3n2)CC1
AUC0-tz reduction (human, male, plasma; oral, 30 mg, fed; baseline: fasted): 26%

O=C(Nc1nc2cccc(-c3ccc(CN4CCS(=O)(=O)CC4)cc3)n2n1)C1CC1
treatment-emergent adverse events (measured: arthralgia; human rheumatoid arthritis patients; oral, 200 mg once daily, 4 weeks, regardless of relatedness): 8.3%

CC(C)(C)CC(C)(C)c1ccc(O)c(-n2nc3ccccc3n2)c1
mass recovery (EpiSkin reconstructed epidermis; 36 h): 96.9%

C[C@@H](O)[C@H](NC(=O)c1ccc(C#Cc2ccccc2)cc1)C(=O)NCC1(C)NC(=O)NC1=O (some centres unmarked)
logD (octanol/buffer; pH 7.4): 2.72

CCOC(=O)N1C[C@@H](C2CCCCC2)N[C@@H](c2cccc(Br)c2)C1
logD (shake-flask, 1-octanol/buffer; pH 7.4): > 4.7

CCCn1cc(C)c2c(=O)[nH]c(-c3cc(S(=O)(=O)N4CCN(CC)CC4)ccc3OCC)nc21
flushing (human; treatment-emergent adverse event): 38.9%

C[C@@H]1COCCN1c1cc(C2([S@](C)(=N)=O)CC2)nc(-c2cc[nH]c3nccc2-3)n1
Nasopharyngitis incidence (Japanese advanced solid tumour patients; oral, 240 mg twice daily, CTCAE grade ≥3): 0%

C[C@H](N[C@@H](CCc1ccccc1)C(=O)O)C(=O)N1[C@H](C(=O)O)C[C@H]2CCCC[C@@H]21
freeze-thaw stability (human plasma; 1000 pg/mL, 3 cycles at -20 °C; baseline: nominal): 83 ± 14.2%
